Experimental data gathered from unrelated publications.
A part holds a random share of what one study measured. Positions count from the first letter of the parent shown.
UniProt P78368, sequence (whole entry, looked up): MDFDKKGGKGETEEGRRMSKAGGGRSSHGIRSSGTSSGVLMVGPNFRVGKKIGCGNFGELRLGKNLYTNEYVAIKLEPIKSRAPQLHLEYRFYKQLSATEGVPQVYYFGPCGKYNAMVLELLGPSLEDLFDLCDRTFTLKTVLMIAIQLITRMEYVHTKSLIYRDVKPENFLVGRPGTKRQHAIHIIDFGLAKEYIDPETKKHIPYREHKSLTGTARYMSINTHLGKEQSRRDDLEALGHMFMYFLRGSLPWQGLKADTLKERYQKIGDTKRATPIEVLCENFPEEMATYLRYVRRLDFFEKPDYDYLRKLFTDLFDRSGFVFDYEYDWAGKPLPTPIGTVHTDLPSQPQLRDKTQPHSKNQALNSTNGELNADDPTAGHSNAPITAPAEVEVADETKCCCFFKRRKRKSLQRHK
UniProt Q9BZL6, sequence (whole entry, looked up): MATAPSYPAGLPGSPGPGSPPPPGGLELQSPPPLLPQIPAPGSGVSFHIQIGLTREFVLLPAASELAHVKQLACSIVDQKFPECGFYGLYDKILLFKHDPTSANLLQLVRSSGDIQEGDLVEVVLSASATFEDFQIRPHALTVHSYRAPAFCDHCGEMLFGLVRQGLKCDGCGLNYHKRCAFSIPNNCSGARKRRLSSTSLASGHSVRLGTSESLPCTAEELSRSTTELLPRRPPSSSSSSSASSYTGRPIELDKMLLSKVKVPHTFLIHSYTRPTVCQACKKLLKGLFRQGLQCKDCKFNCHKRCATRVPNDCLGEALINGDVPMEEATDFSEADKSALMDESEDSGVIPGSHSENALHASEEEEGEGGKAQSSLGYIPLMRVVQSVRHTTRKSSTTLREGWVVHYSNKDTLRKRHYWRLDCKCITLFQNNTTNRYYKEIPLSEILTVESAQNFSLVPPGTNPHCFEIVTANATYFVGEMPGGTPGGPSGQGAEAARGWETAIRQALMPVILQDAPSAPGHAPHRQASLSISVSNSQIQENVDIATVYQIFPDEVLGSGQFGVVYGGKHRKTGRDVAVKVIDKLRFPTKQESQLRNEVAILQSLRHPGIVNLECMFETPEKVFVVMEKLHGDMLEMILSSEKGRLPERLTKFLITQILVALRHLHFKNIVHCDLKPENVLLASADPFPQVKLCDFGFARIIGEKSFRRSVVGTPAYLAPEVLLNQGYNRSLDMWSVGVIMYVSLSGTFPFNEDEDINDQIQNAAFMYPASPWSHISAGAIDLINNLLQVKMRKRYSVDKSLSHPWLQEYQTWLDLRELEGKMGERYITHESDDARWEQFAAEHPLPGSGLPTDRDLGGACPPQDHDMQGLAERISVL
UniProt P22607, sequence (whole entry, looked up): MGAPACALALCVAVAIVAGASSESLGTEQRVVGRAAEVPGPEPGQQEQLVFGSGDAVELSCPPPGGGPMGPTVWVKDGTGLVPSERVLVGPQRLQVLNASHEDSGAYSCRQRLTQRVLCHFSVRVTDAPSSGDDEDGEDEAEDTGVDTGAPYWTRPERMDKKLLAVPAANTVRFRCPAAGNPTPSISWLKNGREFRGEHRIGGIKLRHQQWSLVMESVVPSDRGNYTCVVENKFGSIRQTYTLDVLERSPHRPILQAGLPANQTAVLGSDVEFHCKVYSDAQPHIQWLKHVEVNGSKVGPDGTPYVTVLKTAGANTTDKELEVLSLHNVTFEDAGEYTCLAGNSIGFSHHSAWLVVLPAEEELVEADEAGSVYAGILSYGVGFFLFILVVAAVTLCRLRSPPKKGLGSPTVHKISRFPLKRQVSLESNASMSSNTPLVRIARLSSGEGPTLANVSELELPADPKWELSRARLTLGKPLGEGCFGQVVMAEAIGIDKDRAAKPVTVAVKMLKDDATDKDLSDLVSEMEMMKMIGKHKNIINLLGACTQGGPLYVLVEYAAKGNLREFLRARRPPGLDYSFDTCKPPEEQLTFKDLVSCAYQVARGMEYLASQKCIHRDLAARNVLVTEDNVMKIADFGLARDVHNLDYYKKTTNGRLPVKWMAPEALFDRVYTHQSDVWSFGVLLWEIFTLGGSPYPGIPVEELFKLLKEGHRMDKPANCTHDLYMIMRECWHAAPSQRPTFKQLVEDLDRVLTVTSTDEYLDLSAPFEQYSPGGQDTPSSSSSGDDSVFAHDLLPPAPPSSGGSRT
UniProt P52333, sequence (whole entry, looked up): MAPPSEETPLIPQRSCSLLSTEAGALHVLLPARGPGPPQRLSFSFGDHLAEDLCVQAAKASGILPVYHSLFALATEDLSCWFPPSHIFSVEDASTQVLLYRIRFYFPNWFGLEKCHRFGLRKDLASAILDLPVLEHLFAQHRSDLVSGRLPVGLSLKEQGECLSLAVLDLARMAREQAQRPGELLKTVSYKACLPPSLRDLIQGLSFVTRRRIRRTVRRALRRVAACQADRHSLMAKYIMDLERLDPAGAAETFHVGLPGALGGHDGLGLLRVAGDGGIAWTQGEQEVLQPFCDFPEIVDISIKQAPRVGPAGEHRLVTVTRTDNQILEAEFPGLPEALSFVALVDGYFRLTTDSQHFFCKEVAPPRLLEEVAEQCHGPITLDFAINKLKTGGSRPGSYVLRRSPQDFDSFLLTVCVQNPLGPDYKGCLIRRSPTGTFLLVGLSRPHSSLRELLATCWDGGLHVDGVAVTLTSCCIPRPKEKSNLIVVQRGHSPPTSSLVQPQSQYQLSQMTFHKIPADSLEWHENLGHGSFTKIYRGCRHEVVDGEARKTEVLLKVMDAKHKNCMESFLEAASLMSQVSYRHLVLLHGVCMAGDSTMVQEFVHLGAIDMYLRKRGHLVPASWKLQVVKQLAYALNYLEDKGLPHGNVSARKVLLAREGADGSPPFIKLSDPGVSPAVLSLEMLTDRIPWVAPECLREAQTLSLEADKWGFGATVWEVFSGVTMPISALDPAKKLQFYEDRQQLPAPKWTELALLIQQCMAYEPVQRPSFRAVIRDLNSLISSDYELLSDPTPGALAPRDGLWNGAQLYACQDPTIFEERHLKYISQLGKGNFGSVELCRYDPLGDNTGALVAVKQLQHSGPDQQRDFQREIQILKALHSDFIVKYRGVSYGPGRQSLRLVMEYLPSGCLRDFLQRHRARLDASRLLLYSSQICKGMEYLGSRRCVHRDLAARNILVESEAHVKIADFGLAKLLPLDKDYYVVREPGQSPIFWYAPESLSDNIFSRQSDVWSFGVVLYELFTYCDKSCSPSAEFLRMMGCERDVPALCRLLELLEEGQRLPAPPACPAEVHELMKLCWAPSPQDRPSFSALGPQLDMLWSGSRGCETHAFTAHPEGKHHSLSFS
UniProt Q8WTQ7, sequence (whole entry, looked up): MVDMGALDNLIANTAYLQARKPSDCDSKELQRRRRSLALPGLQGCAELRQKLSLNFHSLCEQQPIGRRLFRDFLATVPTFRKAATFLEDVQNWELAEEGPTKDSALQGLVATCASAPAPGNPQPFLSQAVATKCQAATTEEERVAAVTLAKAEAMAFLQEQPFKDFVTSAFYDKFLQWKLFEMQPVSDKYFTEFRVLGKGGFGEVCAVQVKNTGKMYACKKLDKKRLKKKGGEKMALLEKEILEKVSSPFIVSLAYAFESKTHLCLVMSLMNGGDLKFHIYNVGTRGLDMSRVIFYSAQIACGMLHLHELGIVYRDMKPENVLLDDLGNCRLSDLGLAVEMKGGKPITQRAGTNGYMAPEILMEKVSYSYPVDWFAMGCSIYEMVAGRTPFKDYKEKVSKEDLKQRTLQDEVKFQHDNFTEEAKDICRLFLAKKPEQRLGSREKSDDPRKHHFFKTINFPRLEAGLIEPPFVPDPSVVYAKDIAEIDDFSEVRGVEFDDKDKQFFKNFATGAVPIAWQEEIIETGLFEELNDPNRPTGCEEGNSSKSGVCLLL
UniProt Q9UHD2, sequence (whole entry, looked up): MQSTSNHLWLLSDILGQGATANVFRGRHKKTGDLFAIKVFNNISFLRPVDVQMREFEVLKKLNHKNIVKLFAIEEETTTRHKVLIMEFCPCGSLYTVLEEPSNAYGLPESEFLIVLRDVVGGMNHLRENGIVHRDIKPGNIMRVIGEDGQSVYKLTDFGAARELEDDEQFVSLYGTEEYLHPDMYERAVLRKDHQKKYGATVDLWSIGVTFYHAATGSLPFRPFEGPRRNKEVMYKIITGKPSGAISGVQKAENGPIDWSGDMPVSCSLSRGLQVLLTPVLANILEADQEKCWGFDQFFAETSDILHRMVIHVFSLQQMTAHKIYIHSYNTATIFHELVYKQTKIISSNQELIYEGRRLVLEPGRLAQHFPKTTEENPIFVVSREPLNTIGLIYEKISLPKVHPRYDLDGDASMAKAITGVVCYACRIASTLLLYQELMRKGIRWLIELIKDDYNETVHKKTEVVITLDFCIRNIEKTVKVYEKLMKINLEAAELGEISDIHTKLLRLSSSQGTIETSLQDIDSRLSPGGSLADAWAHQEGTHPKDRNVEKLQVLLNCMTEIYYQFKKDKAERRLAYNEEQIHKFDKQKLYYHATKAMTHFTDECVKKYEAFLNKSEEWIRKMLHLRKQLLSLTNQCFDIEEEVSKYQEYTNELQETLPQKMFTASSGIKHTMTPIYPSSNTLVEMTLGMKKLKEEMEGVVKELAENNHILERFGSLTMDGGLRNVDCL
UniProt Q9UPE1, sequence (whole entry, looked up): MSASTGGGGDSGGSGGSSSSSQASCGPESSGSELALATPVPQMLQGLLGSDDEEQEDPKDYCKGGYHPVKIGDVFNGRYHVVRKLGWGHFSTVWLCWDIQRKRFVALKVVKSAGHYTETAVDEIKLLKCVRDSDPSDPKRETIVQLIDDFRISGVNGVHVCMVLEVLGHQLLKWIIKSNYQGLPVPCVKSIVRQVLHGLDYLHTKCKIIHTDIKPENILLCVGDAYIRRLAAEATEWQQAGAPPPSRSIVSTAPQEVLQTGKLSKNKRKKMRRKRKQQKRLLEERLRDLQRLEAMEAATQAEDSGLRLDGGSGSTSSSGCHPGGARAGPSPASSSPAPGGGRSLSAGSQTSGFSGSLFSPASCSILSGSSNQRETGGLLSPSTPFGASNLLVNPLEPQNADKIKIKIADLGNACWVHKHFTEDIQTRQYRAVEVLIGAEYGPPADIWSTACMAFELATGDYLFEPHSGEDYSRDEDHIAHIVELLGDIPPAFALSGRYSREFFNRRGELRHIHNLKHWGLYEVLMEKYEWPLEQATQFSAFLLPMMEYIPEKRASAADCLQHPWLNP

Study 1 — observed: cell-free assay; method: competition with immobilised ligand; tested at: 1 µM
SMILES: CCC(=O)N[C@H]1CC[C@@H](C(=O)N(C)c2ccc(-c3nc4ccccc4o3)cc2)C1
It gave 100% for remaining binding (PRKD2 (Homo sapiens, UniProt Q9BZL6)).
SRPK3 (Homo sapiens, UniProt Q9UPE1) — remaining binding: 100%.
The remaining binding was 66% (SGK3 (Homo sapiens, UniProt Q96BR1)).
It gave 97% for remaining binding (BRSK2 (Homo sapiens, UniProt Q8IWQ3)).
It gave 100% for remaining binding (ROCK2 (Homo sapiens, UniProt O75116)).

Study 2 — observed: enzyme activity; action: inhibitor; tested at: 0.5 µM; reference: control
Structure (SMILES): COc1ccc(S(=O)(=O)N(CCO)c2ccccc2CN(C)CC=Cc2ccc(Cl)cc2)cc1
For TEK (Homo sapiens, UniProt Q02763): remaining activity read 105%.
FGFR1 (Homo sapiens, UniProt P11362) — remaining activity: 99.5%.
It gave 102% for remaining activity (MAPKAPK2 (Homo sapiens, UniProt P49137)).
For FGFR3 (Homo sapiens, UniProt P22607): remaining activity read 70.1%.
For MAP2K2 (Homo sapiens, UniProt P36507): remaining activity read 100%.
It gave 103% for remaining activity (CSNK1G2 (Homo sapiens, UniProt P78368)).
The remaining activity was 93.7% (MAP3K5 (Homo sapiens, UniProt Q99683)).
ACVR1B (Homo sapiens, UniProt P36896) — remaining activity: 93.2%.
The remaining activity was 114% (GRK7 (Homo sapiens, UniProt Q8WTQ7)).
RPS6KA2 (Homo sapiens, UniProt Q15349) — remaining activity: 99.2%.
The remaining activity was 97.1% (TBK1 (Homo sapiens, UniProt Q9UHD2)).
JAK3 (Homo sapiens, UniProt P52333) — remaining activity: 97%.
MAP3K14 (Homo sapiens, UniProt Q99558) — remaining activity: 90.8%.
For MST1R (Homo sapiens, UniProt Q04912): remaining activity read 95.4%.

Study 3 — target: CCND3, cyclin fold, Cln2 fusion (human); method: yeast growth competition, sequencing; sample: yeast; setting: weak parent motif; reference: not given; reading: higher = stronger binding
Starting sequence: SLBP docking peptide (human); ARYKRKLLINDFG
`ARYKRKLLIDDFG [N10D]` — result for “normalised enrichment score”: 0.125.
`WRYKRKLLINDFG [A1W]` — result for “normalised enrichment score”: 0.141.
For `ARYKRKLLINAFG [D11A]`, “normalised enrichment score” read 0.145.
For `ARYKRKLLINDTG [F12T]`, “normalised enrichment score” read 0.0127.
`ARYKRKSLINDFG [L7S]` — result for “normalised enrichment score”: 0.0859.
`AMYKRKLLINDFG [R2M]`: “normalised enrichment score” 0.119.
`ARYKRKLLQNDFG [I9Q]`: “normalised enrichment score” 0.0518.
`ARYKRKLLILDFG [N10L]` — result for “normalised enrichment score”: 0.201.

Study 4 — method: aptamer microarray, sandwich; form: DNA with 2'F-ANA; sample: in vitro; tested at: 200 nM; with: Cy3 exosite-II aptamer, 400 nM; reading: higher = stronger binding; sequence: GGTTGGTGTGGTTGG
Target: Prothrombin, mature alpha-thrombin (F2, Homo sapiens, UniProt P00734)
Setting: whole 15-mer aptamer, many near background
`2'F-ANA at 2 5 6 8 10 11 12 15` — result for “mean fluorescence intensity”: 78.3 a.u.
Under “mean fluorescence intensity”, `2'F-ANA at 1 4 5 6 7 9 10 11 12 14 15` is recorded as 49.1 a.u.
`2'F-ANA at 3 4 5 9 15`: “mean fluorescence intensity” 107 a.u.
Under “mean fluorescence intensity”, `2'F-ANA at 4 5 7 14 15` is recorded as 49.3 a.u.
For `2'F-ANA at 1 4 5 6 7 9 10 12 13`, “mean fluorescence intensity” read 74 a.u.
For `2'F-ANA at 2 3 5 10 12 14`, “mean fluorescence intensity” read 68.1 a.u.
Under “mean fluorescence intensity”, `2'F-ANA at 3 5 7 8 9 13 14 15` is recorded as 55.5 a.u.
Under “mean fluorescence intensity”, `2'F-ANA at 1 4 6 7 9 12 15` is recorded as 213 a.u.

For quick reference, copied from above (study 3):
`ARYKRKSLINDFG [L7S]` — result for “normalised enrichment score”: 0.0859.
`ARYKRKLLILDFG [N10L]` — result for “normalised enrichment score”: 0.201.
`WRYKRKLLINDFG [A1W]` — result for “normalised enrichment score”: 0.141.
For `ARYKRKLLINDTG [F12T]`, “normalised enrichment score” read 0.0127.
`ARYKRKLLQNDFG [I9Q]`: “normalised enrichment score” 0.0518.
`AMYKRKLLINDFG [R2M]`: “normalised enrichment score” 0.119.
